Measurements pooled from the literature.
Protocols differ between the studies behind these lines. ± marks the error that the study gave.

| SMILES | assay | system | conditions | how to read | endpoint | value |
| --- | --- | --- | --- | --- | --- | --- |
| C#Cc1c(F)ccc2cc(O)cc(-c3ncc4c(N5CC6CCC(C5)N6C(=O)OC(C)OC(=O)C(CC)CCCC)nc(OC[C@@]56CCCN5C[C@H](F)C6)nc4c3F)c12 (some centres unmarked) | refers to: prodrug | mouse whole blood | 1 µM | – | t1/2 | 34.7 min |
| N=C(N)NCCC[C@@H](NC(=O)[C@H](N)Cc1c[nH]c2ccccc12)C(=O)N[C@H](CCCCN)C(=O)N[C@H](Cc1c[nH]c2ccccc12)C(=O)N[C@H](CCCNC(=N)N)C(=O)N[C@H](CCCCN)C(=O)N[C@H](Cc1c[nH]c2ccccc12)C(=O)N[C@H](CCCNC(=N)N)C(=O)N[C@H](CCCCN)C(=O)N[C@H](Cc1c[nH]c2ccccc12)C(=O)N[C@H](CCCNC(=N)N)C(=O)N[C@H](CCCCN)C(N)=O | – | mouse | intraperitoneal, 40 mg/kg single dose, day 2 | – | survival | 75% |
| CCCC[C@H]1C(=O)N(C)[C@@H](CCCC)C(=O)N[C@@H](CCCNC(=O)CN2CCN(CC(=O)O)CCN(CC(=O)O)CCN(CC(=O)O)CC2)C(=O)N[C@H](C(=O)NCC(N)=O)CSCC(=O)N[C@@H](Cc2ccc(O)cc2)C(=O)N(C)[C@@H](C)C(=O)N[C@@H](CC(N)=O)C(=O)N2CCC[C@H]2C(=O)N[C@@H](Cc2c[nH]cn2)C(=O)N[C@@H](CC(C)C)C(=O)N(C)CC(=O)N[C@@H](Cc2c[nH]c3ccccc23)C(=O)N[C@@H](CO)C(=O)N[C@@H](Cc2c[nH]c3ccccc23)C(=O)N1C [gallium-68 labelled] | – | NOD/SCID mice with CHO-hPD-L1 xenograft, kidney | 10 min post injection | – | tissue uptake | 25.1 ± 4.09 %ID/g |
| O=C1NC2(CC2)COc2ncc(F)cc2[C@H]2COCCN2c2ccn3ncc1c3n2 | – | Sprague-Dawley rat, male | oral, 20 mg/kg/day, end of treatment, 4-week repeated-dose toxicity | – | body weight | 424 ± 31.5 g |
| CC(=O)NCCCC[C@@H]1NC(=O)[C@H](Cc2c[nH]c3c(C)cccc23)NC(=O)[C@H]([C@@H](C)O)NC(=O)[C@H](CC(N)=O)NC(=O)[C@@H](NC(C)=O)C(C)(C)SSC(C)(C)[C@@H](C(=O)N[C@@H](Cc2ccc(OCCN)cc2)C(=O)N[C@@H](Cc2ccc3ccccc3c2)C(=O)NC2(C(=O)N[C@@H](CCC(=O)O)C(=O)N[C@@H](CC(N)=O)C(=O)N[C@@H](Cc3cccnc3)C(=O)N(C)CC(N)=O)CCOCC2)NC1=O | equilibrium dialysis | human, plasma | 1 µM | – | unbound fraction | 50.3 ± 5.4% |
| NC1CCN(C(=O)Oc2ccc(C3CCCC4(C3)OOC3(O4)C4CC5CC(C4)CC3C5)cc2)CC1 (racemic) | – | male ICR mice, plasma | oral, 50 mg/kg | – | Cmax | 565 ng/mL |
| CC(C)C[C@H](NC(=O)[C@H](C)NC(=O)[C@H](CCCCN)NC(=O)CCNC(=S)Nc1ccc2c(c1)C(=O)OC21c2ccc(O)cc2Oc2cc(O)ccc21)C(=O)N[C@@H](CCC(=O)O)C(=O)N[C@H](C(=O)N[C@@H](CC(C)C)C(=O)N[C@@H](CCCNC(=N)N)C(=O)N[C@@H](CCCNC(=N)N)C(=O)N[C@H](C(=O)NCC(=O)N[C@@H](CC(=O)O)C(=O)NCC(=O)N[C@H](C(=O)N[C@@H](CCC(N)=O)C(=O)N[C@@H](CCCNC(=N)N)C(=O)N[C@@]1(C)CCCC=CCCC[C@@](C)(C(=O)N[C@@H](Cc2ccccc2)C(N)=O)NC(=O)[C@H]([C@@H](C)O)NC(=O)[C@H](CCC(=O)O)NC(=O)[C@H](Cc2c[nH]cn2)NC1=O)C(C)C)C(C)C)[C@@H](C)O | circular dichroism | potassium phosphate buffer | 20 µM, pH 7.5 | – | α-helicity | 68% |
| CN1Cc2cc(Cl)ccc2-n2c(nnc2C2CCN(c3cccc([18F])n3)CC2)C1 | PET two-tissue compartment model | rhesus monkey, male, striatum | intravenous, dose not given, 90 min scan, baseline scan | – | total volume of distribution | 1.1 ± 0.31 mL/cm3 |
| CC(C)[C@@H]1NC(=O)CNC(=O)[C@H](CC(N)=O)NC(=O)[C@H](CCCNC(=N)N)NC(=O)[C@H](Cc2ccc(O)cc2)NC(=O)[C@H](C(C)C)NC(=O)[C@@H](NC(=O)[C@@H](NC(=O)[C@H](CC(N)=O)NC(=O)[C@H](Cc2c[nH]c3ccccc23)NC(=O)[C@H](C)NC(=O)[C@H](Cc2ccccc2)NC(=O)CNC(=O)[C@H](CCCCN)NC(=O)[C@H](Cc2ccccc2)NC(=O)[C@H](Cc2ccccc2)NC(=O)[C@H](CCCCN)NC(=O)OCC2c3ccccc3-c3ccccc32)C(C)C)CSSC[C@@H](C(=O)N[C@@H](Cc2c[nH]cn2)C(=O)N[C@@H](CCCNC(=N)N)C(=O)N[C@@H](CCCNC(=N)N)C(=O)N[C@@H](C)C(=O)N[C@@H](CC(N)=O)C(N)=O)NC(=O)[C@H](C(C)C)NC(=O)[C@H](CCCNC(=N)N)NC1=O | – | ICR mice, blood | intraperitoneal, 10 mg/kg, day 5 | – | plateletcrit | 0.03% |
| CC[C@H](C)[C@H](NC(=O)[C@H](CCCCN)NC(=O)CNC(=O)[C@H](CC(C)C)NC(=O)[C@H](Cc1ccccc1)NC(=O)[C@H](CCCCN)NC(=O)[C@H](CO)NC(=O)[C@H](Cc1ccccc1)NC(=O)[C@H](Cc1c[nH]c2ccccc12)NC(=O)[C@H](CCC(N)=O)NC(=O)[C@@H](NC(=O)[C@H](Cc1ccccc1)NC(=O)CCCCCNC(=O)CN1CCN(CC(=O)O)CCN(CC(=O)O)CCN(CC(=O)O)CC1)C(C)C)C(=O)N[C@@H](CCC(=O)O)C(=O)N1CCC[C@H]1C(=O)N[C@@H](CC(=O)O)C(=O)N[C@H](C(=O)N[C@@H](CO)C(=O)N[C@@H](CCC(N)=O)C(=O)N[C@H](C(=O)N[C@@H](CCC(N)=O)C(=O)N[C@@H](CC(=O)O)C(=O)N1CCC[C@H]1C(=O)N[C@@H](CC(N)=O)C(=O)N[C@@H](CC(=O)O)C(=O)N[C@@H](CCC(N)=O)C(=O)N[C@@H](Cc1ccc(O)cc1)C(=O)N[C@@H](CCC(=O)O)C(=O)N1CCC[C@H]1C(=O)N[C@@H](Cc1ccccc1)C(=O)O)C(C)C)C(C)C [copper-64 labelled] | dynamic PET | mouse, CT26 tumour, untreated, tumour | intravenous, 100 µCi/mouse, 1380 s | – | SUVmean | 0.59 SUV |
| C[C@H](NCc1ccc(-c2ccc(C(F)(F)F)cc2)cc1)C(N)=O | metabolic stability | human, liver microsomes | 1 µM, 30 min, pH 7.4 | – | compound remaining | 92.2% |
| CC(CCC(=O)NCC(=O)O)C1CCC2C3C(O)CC4CC(OC5OC(C(=O)O)C(O)C(O)C5O)CCC4(C)C3CCC12C (centres unmarked) | – | men, T/T genotype, plasma | dose not given, geometric mean | – | glucuronide to parent ratio | 0.084 |
| CCCCC[C@H]1C(=O)N[C@H](C)C(=O)N(C)[C@@H](CCCCC)C(=O)N[C@H](C)C(=O)N(C)[C@@H](CCCCC)C(=O)N[C@H](C)C(=O)N(C)[C@@H](CCCCC)C(=O)N[C@H](C)C(=O)N1C | PAMPA, HPLC-UV | – | 500 µM, pH 7.4 | – | log Papp | -6.48 ± 0.08 |
| C[C@H](O)[C@@H](NC(=O)[C@H]1CCCN1C(=O)[C@@H](CCCCN)NC(=O)[C@@H](CO)NC(=O)[C@@H](Cc1ccc(O)cc1)NC(=O)[C@@H](CC(N)=O)NC(=O)CCOCCOCCOCCNC(=O)CN1CCN(CC(=O)O)CCN(CC(=O)O)CCN(CC(=O)O)CC1)C(=O)N[C@H](CC(=O)O)C(=O)N[C@H](CCCNC(=N)N)C(=O)N[C@H](CCC(N)=O)C(=O)N[C@H](Cc1ccc(O)cc1)C(=O)N[C@H](Cc1c[nH]cn1)C(=O)N[C@H](Cc1ccccc1)C(N)=O [copper-64 labelled] | – | C57BL/6J mice, brain | intravenous, 1.85 MBq, 0.3333 h, radiolabelled | – | tissue uptake | 0.11 ± 0.02 %ID/g |
| CSCC[C@H](N)C(=O)N[C@@H](C)C(=O)N[C@@H](Cc1c[nH]c2ccccc12)C(=O)N[C@@H](Cc1c[nH]cn1)C(=O)N[C@@H](CC(=O)O)C(=O)N[C@@H](CC(=O)O)C(=O)N[C@@H](CCC(=O)O)C(=O)N[C@@H](CCC(=O)O)C(=O)N[C@@H](Cc1ccccc1)C(=O)N[C@@H](C)C(=O)N[C@@H](CCCNC(=N)N)C(=O)N[C@@H](CCCNC(=N)N)C(=O)N[C@@H](CCCNC(=N)N)C(=O)N[C@@H](CCCNC(=N)N)C(=O)NCCCCCC(=O)NCCCCC(NC(=O)CCCCCNC(=O)[C@H](CCCNC(=N)N)NC(=O)[C@H](CCCNC(=N)N)NC(=O)[C@H](CCCNC(=N)N)NC(=O)[C@H](CCCNC(=N)N)NC(=O)[C@H](C)NC(=O)[C@H](Cc1ccccc1)NC(=O)[C@H](CCC(=O)O)NC(=O)[C@H](CCC(=O)O)NC(=O)[C@H](CC(=O)O)NC(=O)[C@H](CC(=O)O)NC(=O)[C@H](Cc1c[nH]cn1)NC(=O)[C@H](Cc1c[nH]c2ccccc12)NC(=O)[C@H](C)NC(=O)[C@@H](N)CCSC)C(=O)NCCCCC(NC(=O)C(CCCCNC(=O)CCCCCNC(=O)[C@H](CCCNC(=N)N)NC(=O)[C@H](CCCNC(=N)N)NC(=O)[C@H](CCCNC(=N)N)NC(=O)[C@H](CCCNC(=N)N)NC(=O)[C@H](C)NC(=O)[C@H](Cc1ccccc1)NC(=O)[C@H](CCC(=O)O)NC(=O)[C@H](CCC(=O)O)NC(=O)[C@H](CC(=O)O)NC(=O)[C@H](CC(=O)O)NC(=O)[C@H](Cc1c[nH]cn1)NC(=O)[C@H](Cc1c[nH]c2ccccc12)NC(=O)[C@H](C)NC(=O)[C@@H](N)CCSC)NC(=O)CCCCCNC(=O)[C@H](CCCNC(=N)N)NC(=O)[C@H](CCCNC(=N)N)NC(=O)[C@H](CCCNC(=N)N)NC(=O)[C@H](CCCNC(=N)N)NC(=O)[C@H](C)NC(=O)[C@H](Cc1ccccc1)NC(=O)[C@H](CCC(=O)O)NC(=O)[C@H](CCC(=O)O)NC(=O)[C@H](CC(=O)O)NC(=O)[C@H](CC(=O)O)NC(=O)[C@H](Cc1c[nH]cn1)NC(=O)[C@H](Cc1c[nH]c2ccccc12)NC(=O)[C@H](C)NC(=O)[C@@H](N)CCSC)C(N)=O (some centres unmarked) | – | C57BL/6 mouse female, spine | dose not given, 3 h | baseline: total | tissue distribution | 6.74% |
| CC[C@H](C)[C@H](NC(=O)[C@H](C)NC(=O)[C@H](CCCCN)NC(=O)[C@H](CCCCN)NC(=O)[C@@H](N)CCCNC(=N)N)C(=O)N[C@@H](CCCCN)C(=O)N[C@@H](CC(C)C)C(=O)N[C@H](C(=O)N[C@@H](CCCCN)C(=O)N[C@@H](CCCCN)C(=O)N[C@@H](CC(C)C)C(=O)N[C@H](C(=O)N[C@@H](CCCCN)C(=O)N[C@@H](CCCCN)C(=O)N[C@@H](CC(C)C)C(=O)N[C@@H](CCCCN)C(=O)N[C@@H](CCCCN)C(=O)N[C@@H](C)C(=O)N[C@@H](CC(C)C)C(=O)N[C@@H](CCCCN)C(=O)O)C(C)C)C(C)C | – | human red blood cells | 2 mg/L, 1 h, mean of replicates | – | hemolysis | 1.27% |
| COc1ccc([C@@H]2CC(=O)c3c(O)cc(O[C@@H]4O[C@H](CO)[C@@H](O)[C@H](O)[C@H]4O[C@@H]4O[C@@H](C)[C@H](O)[C@@H](O)[C@H]4O)cc3O2)cc1O | – | male Sprague-Dawley rats, lean, urine | oral, 100 mg/kg, 48 to 36 h, total after deconjugation | – | urinary excretion | 3.28 ± 1.44 ng |

A few entries again:
| SMILES | assay | system | conditions | how to read | endpoint | value |
| --- | --- | --- | --- | --- | --- | --- |
| CC(=O)NCCCC[C@@H]1NC(=O)[C@H](Cc2c[nH]c3c(C)cccc23)NC(=O)[C@H]([C@@H](C)O)NC(=O)[C@H](CC(N)=O)NC(=O)[C@@H](NC(C)=O)C(C)(C)SSC(C)(C)[C@@H](C(=O)N[C@@H](Cc2ccc(OCCN)cc2)C(=O)N[C@@H](Cc2ccc3ccccc3c2)C(=O)NC2(C(=O)N[C@@H](CCC(=O)O)C(=O)N[C@@H](CC(N)=O)C(=O)N[C@@H](Cc3cccnc3)C(=O)N(C)CC(N)=O)CCOCC2)NC1=O | equilibrium dialysis | human, plasma | 1 µM | – | unbound fraction | 50.3 ± 5.4% |
| NC1CCN(C(=O)Oc2ccc(C3CCCC4(C3)OOC3(O4)C4CC5CC(C4)CC3C5)cc2)CC1 (racemic) | – | male ICR mice, plasma | oral, 50 mg/kg | – | Cmax | 565 ng/mL |
| CC(C)C[C@H](NC(=O)[C@H](C)NC(=O)[C@H](CCCCN)NC(=O)CCNC(=S)Nc1ccc2c(c1)C(=O)OC21c2ccc(O)cc2Oc2cc(O)ccc21)C(=O)N[C@@H](CCC(=O)O)C(=O)N[C@H](C(=O)N[C@@H](CC(C)C)C(=O)N[C@@H](CCCNC(=N)N)C(=O)N[C@@H](CCCNC(=N)N)C(=O)N[C@H](C(=O)NCC(=O)N[C@@H](CC(=O)O)C(=O)NCC(=O)N[C@H](C(=O)N[C@@H](CCC(N)=O)C(=O)N[C@@H](CCCNC(=N)N)C(=O)N[C@@]1(C)CCCC=CCCC[C@@](C)(C(=O)N[C@@H](Cc2ccccc2)C(N)=O)NC(=O)[C@H]([C@@H](C)O)NC(=O)[C@H](CCC(=O)O)NC(=O)[C@H](Cc2c[nH]cn2)NC1=O)C(C)C)C(C)C)[C@@H](C)O | circular dichroism | potassium phosphate buffer | 20 µM, pH 7.5 | – | α-helicity | 68% |
